Results from different studies.
Protocols differ between the studies behind these lines. Values joined by “and” are separate records of one study, mostly repeats; a detail may differ. ± gives the spread as reported.

`CCCCCCCCCCCCCC(=O)N[C@H](CCN)C(=O)N[C@@H]1C(=O)N[C@@H](CCN)C(=O)N[C@@H](CC(C)C)C(=O)N[C@@H](CCN)C(=O)N[C@H](Cc2ccccc2)C(=O)N[C@@H](CC(C)C)C(=O)N[C@@H](CCN)C(=O)N[C@H](CCN)C(=O)N[C@@H](C(C)C)C(=O)N[C@@H](CC(=O)O)C(=O)O[C@@H]1C`: “AUC extrapolated percentage” 1.49 ± 0.18% (rat; subcutaneous, 10 mg/kg).
`CCN(CC)CCOc1ccc(-c2nnn(Cc3ccc(OC)cc3)c2N)cc1` has a remaining compound of 54.6% (monkey hepatocytes; concentration not given, time not given).
`CC[C@H](C)[C@H](N)C(=O)N[C@@H](CCCNC(=N)N)C(=O)N[C@H](C(=O)N[C@@H](Cc1c[nH]c2ccccc12)C(=O)N[C@@H](Cc1ccccc1)C(=O)N[C@H](C(=O)N[C@@H](CCCCN)C(=O)N[C@H](C(=O)N[C@@H](CCCNC(=N)N)C(=O)N[C@@H](CCCCN)C(=O)N[C@@H](CCSC)C(=O)N[C@@H](CCCCN)C(=O)N[C@@H](C)C(=O)N[C@H](C(=O)N[C@@H](Cc1ccc(O)cc1)C(=O)N[C@@H](Cc1c[nH]cn1)C(=O)N[C@H](C(N)=O)[C@@H](C)O)[C@@H](C)CC)C(C)C)[C@@H](C)CC)C(C)C`: “elution acetonitrile content” 43.5% (reversed-phase UPLC; C18 column, TFA).
`NC1CCN(C(=O)Oc2ccc(C3CCCC4(C3)OOC3(O4)C4CC5CC(C4)CC3C5)cc2)CC1` (racemic) has an AUC(0-inf) of 6.92 µg·h/mL (male ICR mice, plasma; oral, 50 mg/kg).
`CC(C)C[C@H](NC(=O)[C@H](Cc1ccc(O)cc1)NC(=O)[C@H](Cc1c[nH]cn1)NC(=O)[C@H](CC(=O)O)NC(=O)[C@@H](NC(=O)[C@H](C)NC(=O)[C@H](CC(C)C)NC(=O)CNC(=O)CNC(=O)[C@@H](NC(=O)[C@@H](NC(=O)[C@H](CCCCN)NC(=O)CNC(=O)[C@@H](NC(=O)[C@H](CCCCN)NC(=O)[C@H](CCCCN)NC(=O)[C@H](C)NC(=O)[C@H](CCCNC(=N)N)NC(=O)[C@H](CC(N)=O)NC(=O)[C@H](Cc1ccccc1)NC(=O)[C@H](Cc1c[nH]c2ccccc12)NC(=O)[C@H](CCCCN)NC(=O)[C@H](CCCCN)NC(=O)[C@H](Cc1c[nH]c2ccccc12)NC(=O)CN)C(C)C)[C@@H](C)O)C(C)C)C(C)C)C(N)=O`: “chronic toxic concentration” 25 µM (zebrafish embryos 28 hpf, E3 medium; 24 h).
The monocyte percentage of `O=C1NC2(CC2)COc2ncc(F)cc2[C@H]2COCCN2c2ccn3ncc1c3n2` is reported as 4.5 ± 1% (Sprague-Dawley rat, female, blood; oral, 20 mg/kg/day, 4 weeks, end of treatment, subacute toxicity).
For `CC(C)=CCC/C(C)=C/CCn1cc(CC(P(=O)(O)O)P(=O)(O)O)nn1`, the biliary excretion was 0.07% (mouse CD-1; intravenous, 0.3 mg/kg, 2 h; baseline: dose).
The AUC(0-inf) of `Cn1nc(NS(C)(=O)=O)c2c(Cl)ccc(-n3c([C@H](Cc4cc(F)cc(F)c4)NC(=O)Cn4nc(C(F)F)c5c4C(F)(F)[C@@H]4C[C@H]54)nc4nc(OCCC(F)(F)F)ccc4c3=O)c21` is reported as 8.46 µg·h/mL (human, plasma; oral, 125 mg single dose, powder in bottle, geometric mean).
`CC(C)C[C@H](NC(=O)[C@H](CCCCN)NC(=O)[C@H](CCC(N)=O)NC(=O)[C@@H](N)Cc1c[nH]cn1)C(=O)N[C@H](C(=O)N[C@@H](CC(N)=O)C(=O)N[C@@H](Cc1ccccc1)C(=O)N[C@@H](C)C(=O)N[C@@H](CCC(=O)O)C(=O)N[C@@H](CC(=O)O)C(=O)N[C@H](C(=O)O)C(C)C)C(C)C` — result for “turbidity onset concentration”: 1.3 mg/mL (OD600; 20 mM Tris-HCl; pH 7.4).
`COc1ccccc1-c1n[nH]c2nc(NC3CCN(C(=O)Cc4ccc(F)cc4F)CC3)ncc12` gave a relative abundance of 0.82 (bead binding, competition bead pull-down, item: LINJ.05.0090; Leishmania donovani axenic amastigote extract; 10 µM; baseline: vehicle).
The Cmax of `CCCCCCCCCCCCCCCC(=O)N[C@@H](CCC(=O)NCCOCCOCCC(=O)NCCOCCOCCC(=O)NCCCC[C@H](NC(=O)[C@H](CC(=O)O)NC(=O)[C@H](CC(C)C)NC(=O)[C@H](Cc1ccc(O)cc1)NC(=O)[C@H](CCCCN)NC(=O)[C@H](CO)NC(=O)[C@H](Cc1ccc(O)cc1)NC(=O)[C@H](CC(=O)O)NC(=O)[C@H](CO)NC(=O)[C@@H](NC(=O)[C@H](Cc1ccccc1)NC(=O)[C@@H](NC(=O)CNC(=O)[C@H](CCC(N)=O)NC(=O)[C@@H](CO)NC(=O)[C@@H](N)Cc1c[nH]cn1)[C@@H](C)O)[C@@H](C)O)C(=O)N[C@@H](CCCNC(=N)N)C(=O)N[C@@H](CCCNC(=N)N)C(=O)N[C@@H](C)C(=O)N[C@@H](CCC(N)=O)C(=O)N[C@@H](CC(=O)O)C(=O)N[C@@H](Cc1ccccc1)C(=O)N[C@H](C(=O)N[C@@H](CCC(N)=O)C(=O)N[C@@H](Cc1c[nH]c2ccccc12)C(=O)N[C@@H](CC(C)C)C(=O)N[C@@H](CC(C)C)C(=O)N[C@@H](CC(N)=O)C(=O)N[C@H](C(=O)NCC(=O)NCC(=O)N1CCC[C@H]1C(=O)N[C@@H](CO)C(=O)N[C@@H](CO)C(=O)NCC(=O)N[C@@H](C)C(=O)N1CCC[C@H]1C(=O)N1CCC[C@H]1C(=O)N1CCC[C@H]1C(=O)N[C@@H](CO)C(N)=O)[C@@H](C)O)C(C)C)C(=O)O` is reported as 0.533 µg/mL (rhesus monkey, female, plasma; subcutaneous, 300 µg/kg, day 28, toxicokinetics, mean).
`C/C(=N\OCCCN1CCCCC1)c1ccc(C(F)(F)F)cc1`: “diastolic blood pressure” 69 mmHg and 90 mmHg (rhesus monkey; dose not given, after dosing).
`CSCC[C@H](N)C(=O)N[C@@H](C)C(=O)N[C@@H](Cc1c[nH]c2ccccc12)C(=O)N[C@@H](Cc1c[nH]cn1)C(=O)N[C@@H](CC(=O)O)C(=O)N[C@@H](CC(=O)O)C(=O)N[C@@H](CCC(=O)O)C(=O)N[C@@H](CCC(=O)O)C(=O)N[C@@H](Cc1ccccc1)C(=O)N[C@@H](C)C(=O)N[C@@H](CCCNC(=N)N)C(=O)N[C@@H](CCCNC(=N)N)C(=O)N[C@@H](CCCNC(=N)N)C(=O)N[C@@H](CCCNC(=N)N)C(=O)NCCCCCC(=O)NCCCCC(NC(=O)CCCCCNC(=O)[C@H](CCCNC(=N)N)NC(=O)[C@H](CCCNC(=N)N)NC(=O)[C@H](CCCNC(=N)N)NC(=O)[C@H](CCCNC(=N)N)NC(=O)[C@H](C)NC(=O)[C@H](Cc1ccccc1)NC(=O)[C@H](CCC(=O)O)NC(=O)[C@H](CCC(=O)O)NC(=O)[C@H](CC(=O)O)NC(=O)[C@H](CC(=O)O)NC(=O)[C@H](Cc1c[nH]cn1)NC(=O)[C@H](Cc1c[nH]c2ccccc12)NC(=O)[C@H](C)NC(=O)[C@@H](N)CCSC)C(=O)NCCCCC(NC(=O)C(CCCCNC(=O)CCCCCNC(=O)[C@H](CCCNC(=N)N)NC(=O)[C@H](CCCNC(=N)N)NC(=O)[C@H](CCCNC(=N)N)NC(=O)[C@H](CCCNC(=N)N)NC(=O)[C@H](C)NC(=O)[C@H](Cc1ccccc1)NC(=O)[C@H](CCC(=O)O)NC(=O)[C@H](CCC(=O)O)NC(=O)[C@H](CC(=O)O)NC(=O)[C@H](CC(=O)O)NC(=O)[C@H](Cc1c[nH]cn1)NC(=O)[C@H](Cc1c[nH]c2ccccc12)NC(=O)[C@H](C)NC(=O)[C@@H](N)CCSC)NC(=O)CCCCCNC(=O)[C@H](CCCNC(=N)N)NC(=O)[C@H](CCCNC(=N)N)NC(=O)[C@H](CCCNC(=N)N)NC(=O)[C@H](CCCNC(=N)N)NC(=O)[C@H](C)NC(=O)[C@H](Cc1ccccc1)NC(=O)[C@H](CCC(=O)O)NC(=O)[C@H](CCC(=O)O)NC(=O)[C@H](CC(=O)O)NC(=O)[C@H](CC(=O)O)NC(=O)[C@H](Cc1c[nH]cn1)NC(=O)[C@H](Cc1c[nH]c2ccccc12)NC(=O)[C@H](C)NC(=O)[C@@H](N)CCSC)C(N)=O` (some centres unmarked): “mean tissue distribution” 0.8% (C57BL/6 mouse female, spleen; dose not given, 6 h; baseline: total).
With `CC[C@H](C)[C@H](NC(=O)[C@H](CCCCN)NC(=O)CNC(=O)[C@H](CC(C)C)NC(=O)[C@H](Cc1ccccc1)NC(=O)[C@H](CCCCN)NC(=O)[C@H](CO)NC(=O)[C@H](Cc1ccccc1)NC(=O)[C@H](Cc1c[nH]c2ccccc12)NC(=O)[C@H](CCC(N)=O)NC(=O)[C@@H](NC(=O)[C@H](Cc1ccccc1)NC(=O)CCCCCNC(=O)CN1CCN(CC(=O)O)CCN(CC(=O)O)CCN(CC(=O)O)CC1)C(C)C)C(=O)N[C@@H](CCC(=O)O)C(=O)N1CCC[C@H]1C(=O)N[C@@H](CC(=O)O)C(=O)N[C@H](C(=O)N[C@@H](CO)C(=O)N[C@@H](CCC(N)=O)C(=O)N[C@H](C(=O)N[C@@H](CCC(N)=O)C(=O)N[C@@H](CC(=O)O)C(=O)N1CCC[C@H]1C(=O)N[C@@H](CC(N)=O)C(=O)N[C@@H](CC(=O)O)C(=O)N[C@@H](CCC(N)=O)C(=O)N[C@@H](Cc1ccc(O)cc1)C(=O)N[C@@H](CCC(=O)O)C(=O)N1CCC[C@H]1C(=O)N[C@@H](Cc1ccccc1)C(=O)O)C(C)C)C(C)C` [copper-64 labelled] the tissue uptake was 1.77 ± 0.6 %ID/g (C57BL/6 mice, male, tumour-free, pancreas; 2 h).
For `COc1cnc2cccc(N3CCc4c(cc(Cn5ccnc5)cc4-c4cn(C)nc4C(F)(F)F)C3=O)c2c1`, “body weight change” read 6.1% (CD-1 mouse; intraperitoneal, 150 mg/kg once daily, day 3, dose-escalation tolerability; baseline: day 1).
For `N#[11C]c1ccc(-c2csc(NN=C3CCCC3)n2)cc1`, “uptake in large intestine with contents” read 2.1 ± 0.71 %ID/g (C57BL/6 mouse, male; intravenous, 3 MBq, 5 min).
`CCCCC(CC)COC(=O)CC(C(=O)OCC(CC)CCCC)S(=O)(=O)O.COC(=O)Nc1nc2cc(C(=O)c3ccc(F)cc3)ccc2[nH]1` (centres unmarked) has a solubility of ~30 mg/mL (visual inspection; Capryol 90).

A few entries again:
`CCN(CC)CCOc1ccc(-c2nnn(Cc3ccc(OC)cc3)c2N)cc1` has a remaining compound of 54.6% (monkey hepatocytes; concentration not given, time not given).
